Measured values gathered from unrelated publications.
Every numbered part comes from another study and shows a few of its results, in no order.

Series 1 — method: Spec-seq; molecule type: double-stranded DNA, one strand shown; sample: in vitro; concentration: not given; notes: whole probe, mean of replicates; reference: not given; direction: lower = stronger binding; quantity: relative binding energy; all sequences stand within: GAGTCGTCTCGTCAGCACA … CCGTAGAGCACTCAGGTC
Target: POU domain, class 5, transcription factor 1, POU domain (Pou5f1, Mus musculus, UniProt P20263, residues 131-289)
UniProt P20263, sequence (131-289, looked up): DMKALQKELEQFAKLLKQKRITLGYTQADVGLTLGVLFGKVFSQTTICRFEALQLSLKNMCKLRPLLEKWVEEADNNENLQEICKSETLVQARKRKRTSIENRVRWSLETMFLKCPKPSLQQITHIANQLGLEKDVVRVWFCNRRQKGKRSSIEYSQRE
Strand = TATATAT; value = -0.206 ln ratio
Strand = AAGTAAT; value = 0.359 ln ratio
Strand = AGGTAAT; value = 0.634 ln ratio
Strand = TGCCGAA; value = 0.732 ln ratio
Strand = TGCGATA; value = 0.289 ln ratio

Series 2 — method: protein binding microarray; molecule type: double-stranded DNA, one strand shown; sample: in vitro; concentration: not given; reference: not given; direction: higher = stronger binding; quantity: E-score
Target: Histone acetyltransferase KAT6A, winged helix 1, GST fusion (KAT6A, Homo sapiens, UniProt Q92794, residues 1-85)
Notes: 8-mer, flanks averaged, mean of 2 arrays, mostly near background
Residues (chain): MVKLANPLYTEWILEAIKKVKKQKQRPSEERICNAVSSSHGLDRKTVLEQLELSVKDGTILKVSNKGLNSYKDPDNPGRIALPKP
Strand = CGGGGAGA; value = 0.108
Strand = ATATCTTA; value = -0.204
Strand = ACTATCAG; value = -0.158
Strand = AAGGCTAC; value = -0.103
Strand = CCACATAG; value = -0.0902

Series 3 — method: protein-binding microarray; molecule type: double-stranded DNA, one strand shown; sample: in vitro; concentration: 250 nM; notes: 60-bp whole probe; with: salmon DNA 0.4 mg/ml; reference: random background probes; direction: higher = stronger binding; quantity: log fluorescence; all sequences stand within: GCCTAGCAC … GTCTTGATTCGCTTGACGCTGCTG
Target: Interferon regulatory factor 7, full length, phosphomimetic (IRF7, Homo sapiens, UniProt Q92985, residues 1-503, S101K/S471D/S472D/S475D/S476D/S477D/S483D/S484D/S487D)
Construct (chain): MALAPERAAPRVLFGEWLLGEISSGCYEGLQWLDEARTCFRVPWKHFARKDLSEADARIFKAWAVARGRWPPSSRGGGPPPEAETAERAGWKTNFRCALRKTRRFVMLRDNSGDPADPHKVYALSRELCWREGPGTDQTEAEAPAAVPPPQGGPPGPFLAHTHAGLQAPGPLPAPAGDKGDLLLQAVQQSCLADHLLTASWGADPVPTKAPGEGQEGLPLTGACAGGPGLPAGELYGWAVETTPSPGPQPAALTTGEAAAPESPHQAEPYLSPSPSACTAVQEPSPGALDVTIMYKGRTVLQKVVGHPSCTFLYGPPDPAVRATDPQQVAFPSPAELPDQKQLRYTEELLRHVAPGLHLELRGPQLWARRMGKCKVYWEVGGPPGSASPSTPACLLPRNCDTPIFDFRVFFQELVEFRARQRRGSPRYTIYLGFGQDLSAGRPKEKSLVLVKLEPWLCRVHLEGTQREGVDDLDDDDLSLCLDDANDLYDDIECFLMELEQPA
Strand = TTAGAGTTCAGTTTCGATTAGTGCTAG; value = 8.39 z-score
Strand = GATGGTATCCTACTGCTGACGTGCTAG; value = -0.41 z-score
Strand = TTAGGTTTCCTTTACCTTTAGTGCTAG; value = 2.14 z-score
Strand = TTAGGATTGGGACTGGGTTAGTGCTAG; value = 0.0168 z-score
Strand = TCATCTCTGCTCCTTCTGACTGTGCTA; value = 0.203 z-score

Further values, each from its own experiment
Molecule = PhoQ, residues 284 288 289 292 302 303 DDMDFR; target = PhoP, residues 12 14 15 18 19 LHHSG (Escherichia coli, UniProt P23836); test = Sort-seq, item: YFP reporter; system = E. coli; conditions = PhoQ-PhoP variant library, with: 10 µM Mg2+; scale = reference: high Mg2+ state, higher = stronger signaling; quantity = fold induction; value = 0.778

Excerpt of the above (series 1):
Strand = TGCCGAA; value = 0.732 ln ratio
Strand = AGGTAAT; value = 0.634 ln ratio
